Measurements pooled from the literature.
Numbered parts are unrelated; each lists some results of a single study. Several values in a cell are separate wells, animals, samples, runs or records.
Sequence of UniProt P11802 (whole entry, looked up): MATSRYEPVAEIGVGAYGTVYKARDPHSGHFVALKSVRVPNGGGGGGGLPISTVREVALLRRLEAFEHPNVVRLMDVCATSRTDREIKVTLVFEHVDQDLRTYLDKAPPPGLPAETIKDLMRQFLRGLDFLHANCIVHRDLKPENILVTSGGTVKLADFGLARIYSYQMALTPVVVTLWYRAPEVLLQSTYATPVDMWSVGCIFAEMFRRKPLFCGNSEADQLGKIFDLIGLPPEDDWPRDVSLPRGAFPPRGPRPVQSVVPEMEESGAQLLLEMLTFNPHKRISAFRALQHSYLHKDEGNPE
Sequence of UniProt P78368 (whole entry, looked up): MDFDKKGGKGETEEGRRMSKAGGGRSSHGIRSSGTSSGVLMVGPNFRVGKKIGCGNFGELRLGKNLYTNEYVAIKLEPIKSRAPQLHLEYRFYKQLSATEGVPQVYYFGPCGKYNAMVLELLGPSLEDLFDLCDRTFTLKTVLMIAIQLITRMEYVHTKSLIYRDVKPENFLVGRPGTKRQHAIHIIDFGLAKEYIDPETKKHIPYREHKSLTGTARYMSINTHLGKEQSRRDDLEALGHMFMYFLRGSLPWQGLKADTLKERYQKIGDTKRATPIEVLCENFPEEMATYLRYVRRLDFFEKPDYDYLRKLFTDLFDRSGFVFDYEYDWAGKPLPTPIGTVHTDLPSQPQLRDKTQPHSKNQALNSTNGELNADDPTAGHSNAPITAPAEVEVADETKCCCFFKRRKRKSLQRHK
Sequence of UniProt O96013 (whole entry, looked up): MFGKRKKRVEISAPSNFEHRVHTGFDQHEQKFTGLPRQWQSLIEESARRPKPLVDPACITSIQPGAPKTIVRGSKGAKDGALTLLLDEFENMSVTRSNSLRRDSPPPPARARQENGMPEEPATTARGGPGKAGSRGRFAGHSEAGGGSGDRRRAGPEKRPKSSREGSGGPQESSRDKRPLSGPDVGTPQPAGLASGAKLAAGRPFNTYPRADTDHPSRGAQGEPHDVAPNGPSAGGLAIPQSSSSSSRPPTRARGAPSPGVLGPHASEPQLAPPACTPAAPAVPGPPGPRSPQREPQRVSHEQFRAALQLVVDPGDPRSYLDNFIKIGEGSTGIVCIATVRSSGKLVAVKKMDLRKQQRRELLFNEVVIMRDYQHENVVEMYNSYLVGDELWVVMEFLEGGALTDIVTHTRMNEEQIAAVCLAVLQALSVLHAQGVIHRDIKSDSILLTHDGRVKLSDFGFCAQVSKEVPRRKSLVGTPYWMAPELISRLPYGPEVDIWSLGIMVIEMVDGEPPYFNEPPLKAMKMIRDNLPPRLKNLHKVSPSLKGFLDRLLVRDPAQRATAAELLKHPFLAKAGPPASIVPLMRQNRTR
Sequence of UniProt Q5VT25 (whole entry, looked up): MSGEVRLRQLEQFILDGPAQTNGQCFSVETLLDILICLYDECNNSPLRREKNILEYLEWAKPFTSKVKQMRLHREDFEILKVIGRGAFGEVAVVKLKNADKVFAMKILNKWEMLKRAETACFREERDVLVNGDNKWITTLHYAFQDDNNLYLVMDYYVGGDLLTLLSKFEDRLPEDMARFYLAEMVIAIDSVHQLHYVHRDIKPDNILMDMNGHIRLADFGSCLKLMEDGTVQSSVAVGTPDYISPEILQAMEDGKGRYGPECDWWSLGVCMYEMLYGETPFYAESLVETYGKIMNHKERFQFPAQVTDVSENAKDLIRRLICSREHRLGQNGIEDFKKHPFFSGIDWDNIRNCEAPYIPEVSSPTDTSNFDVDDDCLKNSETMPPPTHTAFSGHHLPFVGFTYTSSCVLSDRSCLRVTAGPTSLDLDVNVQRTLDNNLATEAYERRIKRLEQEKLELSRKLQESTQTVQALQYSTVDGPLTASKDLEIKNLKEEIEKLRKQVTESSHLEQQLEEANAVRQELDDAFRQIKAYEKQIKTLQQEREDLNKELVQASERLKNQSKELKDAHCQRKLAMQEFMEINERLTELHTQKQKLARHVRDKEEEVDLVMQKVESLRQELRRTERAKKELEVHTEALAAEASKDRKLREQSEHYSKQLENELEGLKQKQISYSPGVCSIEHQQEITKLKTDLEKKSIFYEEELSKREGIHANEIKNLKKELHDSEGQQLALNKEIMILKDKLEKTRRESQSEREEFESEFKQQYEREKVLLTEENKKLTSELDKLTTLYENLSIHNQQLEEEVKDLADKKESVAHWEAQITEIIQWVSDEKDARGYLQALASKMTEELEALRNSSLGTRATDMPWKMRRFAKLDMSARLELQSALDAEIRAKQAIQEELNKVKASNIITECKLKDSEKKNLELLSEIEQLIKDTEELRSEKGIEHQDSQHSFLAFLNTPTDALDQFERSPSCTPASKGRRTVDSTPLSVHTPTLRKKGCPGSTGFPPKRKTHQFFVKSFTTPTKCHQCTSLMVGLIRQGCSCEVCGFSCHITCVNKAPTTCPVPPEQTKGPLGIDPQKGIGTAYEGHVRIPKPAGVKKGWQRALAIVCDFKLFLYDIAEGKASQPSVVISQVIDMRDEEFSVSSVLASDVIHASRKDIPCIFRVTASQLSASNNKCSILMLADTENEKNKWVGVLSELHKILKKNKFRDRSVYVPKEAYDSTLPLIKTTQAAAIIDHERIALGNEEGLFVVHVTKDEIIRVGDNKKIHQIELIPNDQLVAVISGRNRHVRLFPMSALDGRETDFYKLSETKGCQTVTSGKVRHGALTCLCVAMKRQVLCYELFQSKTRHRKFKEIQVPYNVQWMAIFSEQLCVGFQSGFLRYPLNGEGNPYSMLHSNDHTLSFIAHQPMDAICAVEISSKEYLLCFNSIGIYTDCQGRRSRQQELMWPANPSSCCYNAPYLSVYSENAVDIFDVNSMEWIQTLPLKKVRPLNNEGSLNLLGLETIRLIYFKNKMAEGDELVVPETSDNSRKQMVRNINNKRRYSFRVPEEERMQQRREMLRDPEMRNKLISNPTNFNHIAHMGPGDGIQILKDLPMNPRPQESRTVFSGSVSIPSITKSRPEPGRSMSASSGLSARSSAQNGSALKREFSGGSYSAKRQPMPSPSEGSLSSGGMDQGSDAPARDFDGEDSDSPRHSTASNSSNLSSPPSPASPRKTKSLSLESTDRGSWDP
Sequence of UniProt Q86YV6 (whole entry, looked up): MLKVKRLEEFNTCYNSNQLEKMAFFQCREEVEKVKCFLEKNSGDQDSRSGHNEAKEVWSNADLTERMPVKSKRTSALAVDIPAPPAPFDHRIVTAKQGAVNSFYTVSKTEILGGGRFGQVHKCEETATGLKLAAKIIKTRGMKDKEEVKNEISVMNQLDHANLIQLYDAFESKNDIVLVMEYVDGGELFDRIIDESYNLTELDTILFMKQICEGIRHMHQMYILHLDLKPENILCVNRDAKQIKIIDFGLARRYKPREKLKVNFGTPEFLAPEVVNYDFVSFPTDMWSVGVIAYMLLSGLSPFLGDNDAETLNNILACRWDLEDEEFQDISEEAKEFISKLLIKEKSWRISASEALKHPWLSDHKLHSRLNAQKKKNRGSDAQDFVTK
Sequence of UniProt Q13523 (whole entry, looked up): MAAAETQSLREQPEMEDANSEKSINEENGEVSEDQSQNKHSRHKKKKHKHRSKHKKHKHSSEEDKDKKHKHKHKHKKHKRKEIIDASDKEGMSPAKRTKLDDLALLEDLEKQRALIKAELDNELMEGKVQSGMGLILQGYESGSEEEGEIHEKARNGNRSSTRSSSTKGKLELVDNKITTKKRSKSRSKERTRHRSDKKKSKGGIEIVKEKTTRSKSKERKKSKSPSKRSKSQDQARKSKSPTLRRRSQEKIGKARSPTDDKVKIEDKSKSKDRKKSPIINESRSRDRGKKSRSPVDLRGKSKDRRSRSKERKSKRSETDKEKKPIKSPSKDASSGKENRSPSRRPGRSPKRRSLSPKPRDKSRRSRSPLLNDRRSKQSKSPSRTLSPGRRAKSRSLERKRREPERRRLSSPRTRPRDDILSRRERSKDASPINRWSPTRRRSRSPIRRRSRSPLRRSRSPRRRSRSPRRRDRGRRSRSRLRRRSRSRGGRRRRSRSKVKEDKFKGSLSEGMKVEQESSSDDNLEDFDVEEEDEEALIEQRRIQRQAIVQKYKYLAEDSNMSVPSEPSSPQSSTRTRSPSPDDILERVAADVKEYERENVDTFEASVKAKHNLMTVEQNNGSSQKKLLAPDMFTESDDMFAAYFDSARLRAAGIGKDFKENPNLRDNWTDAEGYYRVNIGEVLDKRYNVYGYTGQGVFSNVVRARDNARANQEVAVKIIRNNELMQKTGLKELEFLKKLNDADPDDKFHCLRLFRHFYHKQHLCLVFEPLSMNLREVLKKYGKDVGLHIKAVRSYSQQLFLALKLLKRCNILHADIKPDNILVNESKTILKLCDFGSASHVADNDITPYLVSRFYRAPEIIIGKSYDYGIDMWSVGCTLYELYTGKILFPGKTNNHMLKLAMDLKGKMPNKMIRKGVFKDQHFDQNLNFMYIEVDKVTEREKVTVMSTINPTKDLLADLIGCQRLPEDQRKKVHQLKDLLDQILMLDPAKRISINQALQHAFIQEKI

Series 1
Compound: COc1ccc(-c2c(Nc3ccccn3)[nH]c3c(C4=CCCCC4)c(-c4ccccc4)nn3c2=O)cc1
Technique: LC-MS/MS
Species: human patients
Medium: plasma
dose not given, 1 h, mean, QD dosing — “plasma methionine concentration”: 70200 ng/mL.
It gave 87200 ng/mL for “plasma methionine concentration” (dose not given, 1 h, median, QD dosing).
The “plasma methionine concentration” was 82100 ng/mL (200 mg BID, 1 h, median).
It gave 63800 ng/mL for “plasma methionine concentration” (50 mg QD, 8 h, geometric mean).
The “plasma methionine concentration” was 68900 ng/mL (200 mg BID, 6 h, geometric mean).
For 200 mg BID, 6 h, mean: “plasma methionine concentration” read 76200 ng/mL.
The “plasma methionine concentration” was 70300 ng/mL (50 mg QD, 8 h, mean).
200 mg BID, 1 h, geometric mean — “plasma methionine concentration”: 62400 ng/mL.

Series 2
Species: human
Medium: microsomes or S9
Tested at: 2 µM
Time: 0.5 h
The remaining compound of `CC1c2cc3c(cc2C2(CCCC2)CN1C(=O)c1ccncn1)OCCO3` (stereo not drawn) is reported as 1.4%.
The remaining compound of `CC(C)COc1cc(=O)n2c(c1C(=O)NC1CCCCC1)CCCCC2` is reported as 17.1%.
The remaining compound of `NCCN(C1CCOCC1)S(=O)(=O)c1ccc(C2CCCCC2)cc1` is reported as 89.2%.
For `COCCCNC1=NCCNC12CCN(S(=O)(=O)c1ccc(F)cc1)CC2`, the remaining compound was 88%.
For `CC(=O)c1cccc(NC(=O)c2ccc(C(C)(C)C)cc2)c1`, the remaining compound was 27.4%.
With `COCCc1noc(CN2CC[C@H]3[C@H](C2)OCc2cnnn23)n1` the remaining compound was 95.8%.
`Clc1ccc(Cc2nc3c4cn[nH]c4ncn3n2)cc1` gave a remaining compound of 96.7%.
The remaining compound of `Cn1c(N2CCN(C(=O)c3cc4cc(Cl)ccc4[nH]3)CC2)cc(=O)n(C)c1=O` is reported as greater than 100%.

Series 3
Compound: CCOC(=O)c1cc2cc(-c3cc(C(=O)NCc4ccc(C(=O)O)cc4)nn3C)ccc2[nH]1
Tested at: 0.1 µM
It gave 100% for remaining binding (CLK1 (Homo sapiens, UniProt P49759); cell-free assay, competition with immobilised ligand).
The remaining binding was 100% (CDC42BPA (Homo sapiens, UniProt Q5VT25); cell-free assay, competition with immobilised ligand).
Ribosomal protein S6 kinase alpha-3, N-terminal kinase domain (RPS6KA3, Homo sapiens, UniProt P51812); cell-free assay, competition with immobilised ligand — remaining binding: 100%.
The remaining binding was 100% (PAK4 (Homo sapiens, UniProt O96013); cell-free assay, competition with immobilised ligand).
CLK4 (Homo sapiens, UniProt Q9HAZ1); cell-free assay, competition with immobilised ligand — remaining binding: 89%.
The remaining binding was 99% (PIM3 (Homo sapiens, UniProt Q86V86); cell-free assay, competition with immobilised ligand).
It gave 100% for remaining binding (MAPK13 (Homo sapiens, UniProt O15264); cell-free assay, competition with immobilised ligand).
The remaining binding was 100% (BUB1 (Homo sapiens, UniProt O43683); cell-free assay, competition with immobilised ligand).
Mast/stem cell growth factor receptor Kit, autoinhibited (KIT, Homo sapiens, UniProt P10721); cell-free assay, competition with immobilised ligand — remaining binding: 83%.
CDK13 (Homo sapiens, UniProt Q14004); cell-free assay, competition with immobilised ligand — remaining binding: 83%.
It gave 79% for remaining binding (CSNK1G2 (Homo sapiens, UniProt P78368); cell-free assay, competition with immobilised ligand).
It gave 92% for remaining binding (MKNK2 (Homo sapiens, UniProt Q9HBH9); cell-free assay, competition with immobilised ligand).
AAK1 (Homo sapiens, UniProt Q2M2I8); binding — remaining binding: 100%.
It gave 94% for remaining binding (NTRK3 (Homo sapiens, UniProt Q16288); cell-free assay, competition with immobilised ligand).
For Cyclin-dependent kinase 4, with cyclin D1 (CDK4, Homo sapiens, UniProt P11802); cell-free assay, competition with immobilised ligand: remaining binding read 82%.
For PRPF4B (Homo sapiens, UniProt Q13523); cell-free assay, competition with immobilised ligand: remaining binding read 89%.
It gave 77% for remaining binding (PIK3CA (Homo sapiens, UniProt P42336, H1047Y); cell-free assay, competition with immobilised ligand).
It gave 100% for remaining binding (HUNK (Homo sapiens, UniProt P57058); cell-free assay, competition with immobilised ligand).
CDK11B (Homo sapiens, UniProt P21127); cell-free assay, competition with immobilised ligand — remaining binding: 98%.
For ALK (Homo sapiens, UniProt Q9UM73, C1156Y); cell-free assay, competition with immobilised ligand: remaining binding read 82%.
MYLK4 (Homo sapiens, UniProt Q86YV6); cell-free assay, competition with immobilised ligand — remaining binding: 100%.
The remaining binding was 100% (MAPK10 (Homo sapiens, UniProt P53779); cell-free assay, competition with immobilised ligand).
The remaining binding was 82% (CDK4 (Homo sapiens, UniProt P11802); cell-free assay, competition with immobilised ligand).
DYRK1A (Homo sapiens, UniProt Q13627); cell-free assay, competition with immobilised ligand — remaining binding: 90%.

Series 4
Target: Serine/threonine-protein kinase 3 (STK3, Homo sapiens, UniProt Q13188)
Sequence of UniProt Q13188 (whole entry, looked up): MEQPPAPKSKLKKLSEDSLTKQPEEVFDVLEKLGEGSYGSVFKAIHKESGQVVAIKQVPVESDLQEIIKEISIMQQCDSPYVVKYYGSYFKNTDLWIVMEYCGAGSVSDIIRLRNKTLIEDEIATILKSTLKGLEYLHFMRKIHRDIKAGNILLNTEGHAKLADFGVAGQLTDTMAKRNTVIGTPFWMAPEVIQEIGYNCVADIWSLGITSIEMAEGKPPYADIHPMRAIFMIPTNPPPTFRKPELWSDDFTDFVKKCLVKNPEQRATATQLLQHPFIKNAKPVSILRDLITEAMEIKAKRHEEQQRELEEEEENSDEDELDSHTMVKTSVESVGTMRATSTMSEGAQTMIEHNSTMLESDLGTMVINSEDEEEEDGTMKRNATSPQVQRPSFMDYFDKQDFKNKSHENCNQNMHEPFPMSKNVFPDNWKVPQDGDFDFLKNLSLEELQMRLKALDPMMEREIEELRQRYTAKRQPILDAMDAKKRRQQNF
Observed: enzyme activity
Mode: inhibitor
Tested at: 0.5 µM
Reference: control
`c1ccc(-c2n[nH]c3c2oc2ccccc23)cc1` gave a remaining activity of 49.6%.
`CCCNC(=O)Nc1ccc(Oc2ncnc3cc(OC)c(OC)cc23)cc1Cl` has a remaining activity of 85%.
The remaining activity of `CN1CCN(c2ccc3nc(-c4c(N)c5c(F)cccc5[nH]c4=O)[nH]c3c2)CC1` is reported as 34.4%.
`O=C1Nc2ccc(Br)cc2/C1=C/c1cc2c([nH]1)CCCC2` gave a remaining activity of 60.7%.
The remaining activity of `N#Cc1cnc2cnc(NCc3cccnc3)cc2c1Nc1ccc(F)c(Cl)c1` is reported as 94.3%.

Mixed results
`CC(C)n1cnc(-c2ccc(F)cc2)c1-c1ncc(C(=O)Nc2ccc(N3CCN(C)CC3)cc2)[nH]1` — result for “patients with alpha-HBDH increased TEAE”: 0% (phase 2a clinical trial; patients with idiopathic pulmonary fibrosis; 30 mg once daily).
For `CC(C)C[C@@H]1NC(=O)[C@@H](N(C)C(=O)[C@H](CC2CCC2)NC(=O)[C@@H]2C[C@@H](F)CN2C(=O)C2(C(F)(F)F)CC(F)(F)C2)CCCCNC(=O)C2(CC2)NC(=O)[C@H](Cc2cc(Cl)ccc2Cl)N(C)C1=O`, the cell count was 0.302 and 0.185 (NCI-H446; Vi-Cell counting; 200 nM, 3 days, without Mps1 inhibitor; reference: DMSO).
`CC(=O)N[C@@H](Cc1c[nH]c2ccccc12)C(=O)N[C@@H](CCC(=O)C=[N+]=[N-])C(=O)OC(C)C` has a sedoheptulose level of 3.47e+06 a.u. and 3.21e+06 a.u. and 3.73e+06 a.u. and 2.34e+06 a.u. and 3.4e+06 a.u. and 3.66e+06 a.u. (UPLC-MS/MS; EL4 tumor, C57BL/6 CES1-/- mice, tumor; subcutaneous, 0.3 mg/kg DON equivalent daily, 5 days; higher = more metabolite).

Excerpt of the above (series 3):
Ribosomal protein S6 kinase alpha-3, N-terminal kinase domain (RPS6KA3, Homo sapiens, UniProt P51812); cell-free assay, competition with immobilised ligand — remaining binding: 100%.
The remaining binding was 100% (PAK4 (Homo sapiens, UniProt O96013); cell-free assay, competition with immobilised ligand).
CLK4 (Homo sapiens, UniProt Q9HAZ1); cell-free assay, competition with immobilised ligand — remaining binding: 89%.
The remaining binding was 99% (PIM3 (Homo sapiens, UniProt Q86V86); cell-free assay, competition with immobilised ligand).
It gave 100% for remaining binding (MAPK13 (Homo sapiens, UniProt O15264); cell-free assay, competition with immobilised ligand).
The remaining binding was 100% (BUB1 (Homo sapiens, UniProt O43683); cell-free assay, competition with immobilised ligand).
Mast/stem cell growth factor receptor Kit, autoinhibited (KIT, Homo sapiens, UniProt P10721); cell-free assay, competition with immobilised ligand — remaining binding: 83%.
